Published values collected from several papers.
Several values in a cell are separate wells, animals, samples, runs or records. ± gives the spread as reported.
PPARG: Peroxisome proliferator-activated receptor gamma (PPARG, Homo sapiens, UniProt P37231)
UniProt P37231, sequence (whole entry, looked up): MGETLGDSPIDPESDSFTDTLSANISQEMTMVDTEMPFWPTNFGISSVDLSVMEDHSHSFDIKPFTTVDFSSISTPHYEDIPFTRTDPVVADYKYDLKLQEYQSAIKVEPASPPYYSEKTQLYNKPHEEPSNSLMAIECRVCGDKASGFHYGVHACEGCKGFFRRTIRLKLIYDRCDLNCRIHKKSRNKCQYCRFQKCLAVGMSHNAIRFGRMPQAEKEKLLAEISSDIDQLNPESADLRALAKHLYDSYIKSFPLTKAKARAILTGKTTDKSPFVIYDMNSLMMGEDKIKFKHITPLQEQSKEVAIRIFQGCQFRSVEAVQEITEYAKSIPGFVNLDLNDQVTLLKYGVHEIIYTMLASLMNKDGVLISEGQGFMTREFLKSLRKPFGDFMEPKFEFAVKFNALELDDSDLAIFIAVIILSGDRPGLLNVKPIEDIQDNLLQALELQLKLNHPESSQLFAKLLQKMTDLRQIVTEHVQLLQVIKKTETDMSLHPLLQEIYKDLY
Rhomboid protease AarA: Rhomboid protease AarA (Providencia stuartii, UniProt P46116)
UniProt P46116, sequence (whole entry, looked up): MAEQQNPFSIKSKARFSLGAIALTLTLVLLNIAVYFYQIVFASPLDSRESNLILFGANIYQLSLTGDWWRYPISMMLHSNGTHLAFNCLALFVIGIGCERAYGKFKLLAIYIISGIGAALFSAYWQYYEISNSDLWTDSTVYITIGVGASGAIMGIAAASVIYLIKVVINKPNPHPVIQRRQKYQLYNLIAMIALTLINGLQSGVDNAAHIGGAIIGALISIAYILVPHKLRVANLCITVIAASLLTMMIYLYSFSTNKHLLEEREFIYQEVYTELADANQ
HDAC1: Histone deacetylase 1 (HDAC1, Homo sapiens, UniProt Q13547)
UniProt Q13547, sequence (whole entry, looked up): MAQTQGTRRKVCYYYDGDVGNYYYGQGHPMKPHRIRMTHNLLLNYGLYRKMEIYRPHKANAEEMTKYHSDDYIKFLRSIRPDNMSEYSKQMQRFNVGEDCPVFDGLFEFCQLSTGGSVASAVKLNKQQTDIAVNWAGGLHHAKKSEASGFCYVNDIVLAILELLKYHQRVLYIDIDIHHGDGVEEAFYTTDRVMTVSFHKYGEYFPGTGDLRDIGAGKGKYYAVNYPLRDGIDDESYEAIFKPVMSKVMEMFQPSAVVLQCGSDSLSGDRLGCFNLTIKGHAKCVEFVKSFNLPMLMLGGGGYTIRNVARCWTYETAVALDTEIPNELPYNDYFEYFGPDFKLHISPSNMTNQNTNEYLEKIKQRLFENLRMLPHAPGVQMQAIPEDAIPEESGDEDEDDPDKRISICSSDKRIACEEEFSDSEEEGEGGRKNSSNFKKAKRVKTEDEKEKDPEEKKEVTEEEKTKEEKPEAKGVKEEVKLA
Melanoma-associated antigen 4 MAGE homology domain: Melanoma-associated antigen 4, MAGE homology domain (Homo sapiens, UniProt P43358)
UniProt P43358, sequence (whole entry, looked up): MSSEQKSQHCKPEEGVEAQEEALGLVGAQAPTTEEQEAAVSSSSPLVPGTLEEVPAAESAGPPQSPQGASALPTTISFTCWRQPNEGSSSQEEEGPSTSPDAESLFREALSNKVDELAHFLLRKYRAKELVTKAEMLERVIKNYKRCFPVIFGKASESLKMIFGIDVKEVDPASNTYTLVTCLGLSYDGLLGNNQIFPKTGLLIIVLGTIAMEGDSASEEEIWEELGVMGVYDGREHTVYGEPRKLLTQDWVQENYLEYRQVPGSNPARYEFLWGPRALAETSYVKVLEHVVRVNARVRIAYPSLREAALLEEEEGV
PPARG ligand-binding domain: Peroxisome proliferator-activated receptor gamma, ligand-binding domain (PPARG, Homo sapiens, UniProt P37231)
UniProt P51681, sequence (whole entry, unmodified, looked up): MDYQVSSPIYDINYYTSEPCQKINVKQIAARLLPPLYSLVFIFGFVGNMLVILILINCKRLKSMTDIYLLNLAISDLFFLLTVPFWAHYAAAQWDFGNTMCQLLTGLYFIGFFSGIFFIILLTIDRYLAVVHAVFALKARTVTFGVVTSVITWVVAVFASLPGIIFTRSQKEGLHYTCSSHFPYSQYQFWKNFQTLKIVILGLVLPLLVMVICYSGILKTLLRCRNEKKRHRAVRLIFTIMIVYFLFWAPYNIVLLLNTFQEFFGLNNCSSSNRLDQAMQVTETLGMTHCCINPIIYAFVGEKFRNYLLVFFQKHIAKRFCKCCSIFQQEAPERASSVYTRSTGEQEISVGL
UniProt O75795, sequence (whole entry, looked up): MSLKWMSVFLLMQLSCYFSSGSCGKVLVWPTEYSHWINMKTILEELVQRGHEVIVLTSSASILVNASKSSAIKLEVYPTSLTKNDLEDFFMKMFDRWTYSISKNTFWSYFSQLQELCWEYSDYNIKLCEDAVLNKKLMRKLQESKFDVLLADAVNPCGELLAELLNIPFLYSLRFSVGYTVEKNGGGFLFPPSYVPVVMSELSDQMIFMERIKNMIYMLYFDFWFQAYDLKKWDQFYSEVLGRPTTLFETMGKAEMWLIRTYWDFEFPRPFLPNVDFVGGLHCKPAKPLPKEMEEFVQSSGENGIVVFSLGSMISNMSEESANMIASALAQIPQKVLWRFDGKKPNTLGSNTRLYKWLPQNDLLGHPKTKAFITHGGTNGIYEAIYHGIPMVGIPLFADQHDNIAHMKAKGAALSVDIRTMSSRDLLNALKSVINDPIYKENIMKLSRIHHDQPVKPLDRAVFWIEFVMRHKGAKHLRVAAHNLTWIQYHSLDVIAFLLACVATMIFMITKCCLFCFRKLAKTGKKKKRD
UniProt P42356, sequence (whole entry, looked up): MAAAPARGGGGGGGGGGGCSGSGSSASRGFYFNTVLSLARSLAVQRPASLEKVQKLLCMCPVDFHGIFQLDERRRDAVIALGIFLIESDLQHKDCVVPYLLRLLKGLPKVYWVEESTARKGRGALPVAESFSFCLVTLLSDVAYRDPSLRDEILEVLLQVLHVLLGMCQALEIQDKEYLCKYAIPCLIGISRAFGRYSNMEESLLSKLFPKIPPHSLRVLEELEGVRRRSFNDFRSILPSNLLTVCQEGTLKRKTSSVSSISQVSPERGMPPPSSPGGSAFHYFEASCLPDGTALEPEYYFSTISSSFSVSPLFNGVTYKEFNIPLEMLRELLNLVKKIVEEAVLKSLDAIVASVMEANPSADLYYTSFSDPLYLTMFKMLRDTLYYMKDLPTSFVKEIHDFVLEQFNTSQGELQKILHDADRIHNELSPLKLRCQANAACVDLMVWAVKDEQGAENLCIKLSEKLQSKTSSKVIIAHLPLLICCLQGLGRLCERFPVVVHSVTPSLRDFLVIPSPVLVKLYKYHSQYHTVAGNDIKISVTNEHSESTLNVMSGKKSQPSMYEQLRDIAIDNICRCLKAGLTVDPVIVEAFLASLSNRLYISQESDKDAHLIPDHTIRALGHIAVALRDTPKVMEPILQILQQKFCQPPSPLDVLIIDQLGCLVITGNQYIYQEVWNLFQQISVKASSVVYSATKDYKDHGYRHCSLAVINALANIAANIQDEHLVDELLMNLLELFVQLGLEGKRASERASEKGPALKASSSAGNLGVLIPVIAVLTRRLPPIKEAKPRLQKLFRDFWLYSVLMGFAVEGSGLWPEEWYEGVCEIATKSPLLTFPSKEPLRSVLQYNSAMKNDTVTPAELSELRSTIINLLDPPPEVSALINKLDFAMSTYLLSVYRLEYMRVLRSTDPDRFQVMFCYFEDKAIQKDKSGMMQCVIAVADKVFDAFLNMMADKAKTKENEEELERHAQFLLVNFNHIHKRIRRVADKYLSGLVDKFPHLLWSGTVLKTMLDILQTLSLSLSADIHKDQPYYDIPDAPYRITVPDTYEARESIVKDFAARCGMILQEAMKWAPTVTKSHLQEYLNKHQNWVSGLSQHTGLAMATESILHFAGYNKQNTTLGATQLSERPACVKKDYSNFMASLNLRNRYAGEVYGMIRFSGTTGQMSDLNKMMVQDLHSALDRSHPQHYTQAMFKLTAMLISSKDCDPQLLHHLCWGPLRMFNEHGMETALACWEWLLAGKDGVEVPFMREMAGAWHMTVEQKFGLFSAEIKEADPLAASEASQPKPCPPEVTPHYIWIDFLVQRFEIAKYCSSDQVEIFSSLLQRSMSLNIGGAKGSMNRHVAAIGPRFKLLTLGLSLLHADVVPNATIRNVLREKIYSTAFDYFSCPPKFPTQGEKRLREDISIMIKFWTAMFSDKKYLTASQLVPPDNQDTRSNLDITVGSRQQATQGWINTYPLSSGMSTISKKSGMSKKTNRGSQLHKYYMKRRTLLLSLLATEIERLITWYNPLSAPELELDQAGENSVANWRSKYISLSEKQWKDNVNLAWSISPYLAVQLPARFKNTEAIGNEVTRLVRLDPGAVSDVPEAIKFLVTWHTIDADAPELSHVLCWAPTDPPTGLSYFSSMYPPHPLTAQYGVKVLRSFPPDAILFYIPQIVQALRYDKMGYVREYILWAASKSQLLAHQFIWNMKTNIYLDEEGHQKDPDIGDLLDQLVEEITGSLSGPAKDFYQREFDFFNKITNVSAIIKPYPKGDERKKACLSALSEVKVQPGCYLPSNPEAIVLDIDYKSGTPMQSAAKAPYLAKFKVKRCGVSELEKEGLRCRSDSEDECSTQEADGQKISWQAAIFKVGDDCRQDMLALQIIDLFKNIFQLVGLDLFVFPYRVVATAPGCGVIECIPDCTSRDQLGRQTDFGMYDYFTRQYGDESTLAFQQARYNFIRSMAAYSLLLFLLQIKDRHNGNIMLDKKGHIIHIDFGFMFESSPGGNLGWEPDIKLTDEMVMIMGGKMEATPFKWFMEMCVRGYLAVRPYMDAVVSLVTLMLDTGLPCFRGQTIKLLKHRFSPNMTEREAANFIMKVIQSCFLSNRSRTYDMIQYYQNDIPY
UniProt P07550, sequence (whole entry, unmodified, looked up): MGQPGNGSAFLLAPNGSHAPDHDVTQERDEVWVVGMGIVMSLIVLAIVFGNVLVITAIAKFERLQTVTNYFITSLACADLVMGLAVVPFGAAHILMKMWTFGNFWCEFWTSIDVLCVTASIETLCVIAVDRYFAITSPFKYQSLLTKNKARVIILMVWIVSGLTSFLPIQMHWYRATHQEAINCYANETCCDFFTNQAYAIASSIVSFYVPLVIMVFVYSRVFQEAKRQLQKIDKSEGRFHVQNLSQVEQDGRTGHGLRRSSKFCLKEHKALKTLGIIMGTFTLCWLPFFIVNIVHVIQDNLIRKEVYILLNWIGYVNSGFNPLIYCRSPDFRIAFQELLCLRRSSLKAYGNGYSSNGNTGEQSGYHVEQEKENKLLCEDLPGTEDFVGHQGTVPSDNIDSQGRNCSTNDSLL

With COc1cc(-c2cc(C(C)=O)n3ccccc23)c(OC)cc1Cn1ccnc1 the IC50 was 690 nM (CREB-binding protein (CREBBP, Homo sapiens, UniProt Q92793); inhibitor).
Cc1nc2cc(C(=O)N[C@@H](C)c3cccc(C(C)(C)C)c3)ccc2n1Cc1cccc(OC(C)(C)C(=O)O)c1 gave an IC50 of 262 nM (PPARG; ligand displacement, TR-FRET).
With Cc1nc(S(=O)(=O)Nc2cc3c(cc2Oc2cccc(COCC(C)C)c2)n(C)c(=O)n3C)cn1C the IC50 was 323 nM (Peregrin, bromodomain (BRPF1, Homo sapiens, UniProt P55201)).
COCCNC(=O)COc1ccccc1NC(=O)C(C(F)(F)F)C(F)(F)F has an IC50 of 18000 nM (Rhomboid protease AarA; enzyme activity, inhibitor, fluorescence).
COC(=O)CCCNC(=O)Cc1ccc(Nc2ncc(F)c(-c3cc(F)c4nc(C)n(C(C)C)c4c3)n2)cc1 has an IC50 of over 1000 nM (HDAC1; enzyme activity, inhibitor).
With O=C(NC1CCN(Cc2ccccc2)C1)C(C(F)(F)F)C(F)(F)F (centres unmarked) the IC50 was 21000 nM (Rhomboid protease AarA; enzyme activity, inhibitor, fluorescence).
Cc1nn(-c2cccc(N)c2)c(=O)c2cnc(Nc3ccc(N4CCNCC4)cc3)nc12 gave an IC50 of 3440 nM (Glycogen synthase kinase-3 alpha (GSK3A, Homo sapiens, UniProt P49840); enzyme activity, inhibitor).
For O=C(NCc1ccc(OP(=O)(O)O)c(OP(=O)(O)O)c1)OCC1c2ccccc2-c2ccccc21, the IC50 was 460 nM (Signal transducer and activator of transcription 5B, SH2 (STAT5B, Homo sapiens, UniProt P51692); ligand displacement, FP).
O=C(CCNC(=O)CNC(=O)CC(c1ccccc1)(c1ccccc1)c1ccccc1)NC[C@@H]1CCCN(C(=O)c2ccc(F)cc2)C1 has an IC50 of over 30000 nM (Muscarinic acetylcholine receptor M2 (CHRM2, Homo sapiens, UniProt P08172); ligand displacement, radioligand; cell membranes).
CC[C@H](C)[C@@H]1NC(=O)[C@H](Cc2ccc(O)cc2)NC(=O)CCSCSCCNC(=O)[C@H](Cc2c[nH]cn2)NC(=O)[C@H](Cc2ccc(O)cc2)NC(=O)[C@H](CC(=O)O)NC(=O)[C@H](Cc2ccc(O)cc2)NC(=O)[C@H](CC(C)C)NC(=O)[C@H](CCCNC(=N)N)NC1=O has an IC50 of 26.2 ± 3.2 nM (Melanoma-associated antigen 4 MAGE homology domain; binding, inhibitor, TR-FRET displacement; with: Alexa647-MTP-1).
The IC50 of Cc1c(Cc2ccc(OC(C)C(=O)O)cc2)c2ccc(C(=O)N[C@@H](C)c3cccc(C(C)C)c3)cc2n1C (some centres unmarked) is reported as 6760 nM (PPARG ligand-binding domain; reporter gene, luciferase reporter; HEK293T, Gal4-PPARγ LBD).
For CN1CCN(C(=O)c2ccc(-c3cc4nccc(-c5ccc6cnccc6c5)c4o3)cc2)CC1, the IC50 was 3000 nM (Phosphatidylinositol 4-kinase alpha (PI4KA, Homo sapiens, UniProt P42356); enzyme activity, inhibitor).
The IC50 of Cc1c(Cc2ccc(OC(C)C(=O)O)cc2)c2ccc(C(=O)NC(C)c3ccc(C(C)(C)C)cc3)cc2n1C (mixture of isomers) is reported as 71.2 nM (PPARG; ligand displacement, TR-FRET).
For C[C@H]1[C@@H](O)O[C@@H]2O[C@@]3(C)CC[C@H]4[C@H](C)CC[C@@H]1[C@@]24OO3, the IC50 was over 200000 nM (Induced myeloid leukemia cell differentiation protein Mcl-1 (MCL1, Homo sapiens, UniProt Q07820); binding, inhibitor, fluorescence polarization; with: labeled Bid-BH3 peptide).
The IC50 of O=C(CCNC(=O)CNC(=O)CC(c1ccccc1)(c1ccccc1)c1ccccc1)NCC1CCN(C(=O)c2ccc(F)cc2)CC1 is reported as over 30000 nM (Muscarinic acetylcholine receptor M4 (CHRM4, Homo sapiens, UniProt P08173); ligand displacement, radioligand; cell membranes).
With Cc1ccc(CNC(=O)[C@@H](NC(=O)[C@H](CCc2ccccc2)NC(=O)[C@H](CCc2ccccc2)N(C)Cc2cnccn2)C(C)C)cc1 the IC50 was 240 nM (Psmb1/Psmb8 (Rattus norvegicus, UniProt P18421+P28064); enzyme activity, inhibitor; with: Ac-ANW-aminocoumarin, PA28α 12 nM).
Fc1ccc(Nc2nc(NC3CCCCC3)c3cc(Br)ccc3n2)cc1F gave an IC50 of 501 nM (Beta-2 adrenergic receptor (ADRB2, Homo sapiens, UniProt P07550, V152G); β-arrestin2 recruitment, antagonist, BRET; HEK293; mutant V152G, with: isoprenaline 1 µM).
O=C(Nc1ccc(Cc2ccccc2)cc1)C(C(F)(F)F)C(F)(F)F has an IC50 of 8100 nM (Rhomboid protease AarA; enzyme activity, inhibitor, fluorescence).
For CCOc1cc(CN2CCC3(CC2)CN(c2ccc(C(=O)O)cc2)C(=O)N3)c(C2CC2)cc1C, the IC50 was 14.1 nM (Somatostatin receptor type 5 (SSTR5, Homo sapiens, UniProt P35346, Q123A); cAMP level, antagonist, GloSensor; AD293; Q123A mutant, bandwidth 3.36, with: CST17 EC80 and forskolin).
Cc1nc2c(F)cc(-c3nc(Nc4ccc(NC(=O)CCCCCCC(=O)NO)nc4)ncc3F)cc2n1C(C)C gave an IC50 of 6.9 nM (HDAC1; enzyme activity, inhibitor).
With Cc1c(Cc2cccc(OC(C)(C)C(=O)O)c2)c2ccc(C(=O)NCc3cccc(C(C)(C)C)c3)cc2n1CC1CCC1 the IC50 was 0.21 nM (PPARG; ligand displacement, TR-FRET).
With CC[C@H](C)[C@@H]1NC(=O)[C@H](Cc2ccccc2)NC(=O)CCSCc2cccc(c2)CSCCNC(=O)[C@H](C)NC(=O)[C@H](Cc2ccc(O)cc2)NC(=O)[C@H](CC(=O)O)NC(=O)[C@H](Cc2ccc(F)cc2)NC(=O)[C@H](CC(C)C)NC(=O)[C@H](CCCCN)NC1=O the IC50 was 851 ± 190 nM (Melanoma-associated antigen 4 MAGE homology domain; binding, inhibitor, TR-FRET displacement; with: Alexa647-MTP-1).
O=C(NCCOc1ccccc1NC(=O)C(C(F)(F)F)C(F)(F)F)c1ccccc1 has an IC50 of 10000 nM (Rhomboid protease AarA; enzyme activity, inhibitor, fluorescence).
For CCCC(=O)OC1CCC2(C)C(CCC3(C)C2CC=C2C4C(C)C(C)CCC4(C(=O)O)CCC23C)C1(C)C (centres unmarked), the IC50 was over 100000 nM (UDP-glucuronosyltransferase 2B17 (UGT2B17, Homo sapiens, UniProt O75795); enzyme activity, inhibitor).
Cc1nnc(-c2ccc(CC(=O)NCCOCCOCC(=O)NC(CCN3C4CCC3CC(n3c(C)nnc3C(C)C)C4)c3ccccc3)cc2)nn1 (centres unmarked) has an IC50 of 12.8 nM and 31.6 nM and 29.7 nM (C-C chemokine receptor type 5 (CCR5, Homo sapiens, UniProt P51681, Y184K); calcium mobilisation, inhibitor; HEK293T expressing CCR5; with: PSC-RANTES).
CC(C)C[C@H](NC(=O)[C@H](CC(C)C)NC(=O)CNC(=O)[C@H](C)NC(=O)[C@H](C)NC(=O)[C@H](CCCNC(=N)N)NC(=O)CNC(=O)CCCCNC(=O)CCCCNC(=O)CCCCNC(=O)[C@H](CCCCN)NC(=O)[C@H](Cc1ccc(O)cc1)NC(=O)[C@@H](N)Cc1cn(C)c2ccccc12)C(N)=O gave an IC50 of 545 nM (Neuropeptides B/W receptor type 1 (NPBWR1, Homo sapiens, UniProt P48145); calcium signal, antagonist).
COC(=O)CCCCCCCNC(=O)Cc1ccc(Nc2ncc(F)c(-c3cc(F)c4nc(C)n(C(C)C)c4c3)n2)cc1 has an IC50 of over 1000 nM (HDAC1; enzyme activity, inhibitor).
The IC50 of O=C(C(C(F)(F)F)C(F)(F)F)N1CCc2ccccc21 is reported as 3600 nM (Rhomboid protease AarA; enzyme activity, inhibitor, fluorescence).
CCn1nc(Cl)c2c1-c1cnc(N)c(c1)O[C@H](C)c1cc(F)ccc1-c1nn(C)cc1C2 has an IC50 of 795 nM (Mitogen-activated protein kinase kinase kinase kinase 5 (MAP4K5, Homo sapiens, UniProt Q9Y4K4); enzyme activity, inhibitor, radiometric).
For Cc1c(Cc2ccc(OC(C)C(=O)O)cc2Cl)c2ccc(C(=O)NC(C)c3ccc(C(C)(C)C)cc3)cc2n1C (centres unmarked), the IC50 was 35100 nM (PPARG ligand-binding domain; reporter gene, luciferase reporter; HEK293T, Gal4-PPARγ LBD).
O=C(NCC(F)(F)c1ccc(Cl)cc1Cl)c1cc(Cl)nnc1Oc1cccc(C2CC2)c1 gave an IC50 of 460 ± 15 nM (serine palmitoyltransferase (Zymoseptoria tritici, UniProt F9X349+F9XMN6)).
The IC50 of Cc1nc2c(F)cc(-c3nc(Nc4ccc(NC(=O)CCCCC(=O)NO)cc4)ncc3F)cc2n1C(C)C is reported as 228 nM (HDAC1; enzyme activity, inhibitor).
COc1c(Cl)cccc1Nc1c(-c2ccncc2C#C[C@@]2(C)CCCN2C(=O)/C=C/CN(C)C)[nH]c2c1C(=O)NCC2 gave an IC50 of 27 nM (Receptor tyrosine-protein kinase erbB-4 (ERBB4, Homo sapiens, UniProt Q15303)).
For Cc1ccc(NC(=O)C(C(F)(F)F)C(F)(F)F)cn1, the IC50 was 27000 nM (Rhomboid protease AarA; enzyme activity, inhibitor, fluorescence).
CC[C@H](C)[C@@H]1NC(=O)[C@H](Cc2ccc(O)cc2)NC(=O)CCSCc2cccc(c2)CSCCNC(=O)[C@H](Cc2c[nH]cn2)NC(=O)[C@H](Cc2ccc(O)cc2)NC(=O)[C@H](CC(=O)O)NC(=O)[C@H](Cc2ccc(F)cc2)NC(=O)[C@H](CC(C)C)NC(=O)[C@H](CCCNC(=N)N)NC1=O has an IC50 of 43 ± 17 nM (Melanoma-associated antigen 4 MAGE homology domain; binding, inhibitor, TR-FRET displacement; with: Alexa647-MTP-1).
Cc1cc(C)nc(NC(=S)N2CCN(c3ccncc3)CC2)c1 gave an IC50 of over 57000 nM (L-lactate dehydrogenase A chain (LDHA, Homo sapiens, UniProt P00338); enzyme activity, inhibitor).
CCN(CC)CC(=O)Nc1cccc(-n2cc(-c3ccc4ccc(-c5cn(-c6cccc(NC(=O)CN(CC)CC)c6)nn5)cc4c3)nn2)c1 has an IC50 of over 10000 nM (Mitogen-activated protein kinase 1 (MAPK1, Homo sapiens, UniProt P28482); enzyme activity, inhibitor).
For Cc1c(Cc2cc(Cl)cc(O[C@@H](C)C(=O)O)c2)c2ccc(C(=O)N[C@@H](C)c3ccc(C(C)(C)C)cc3)cc2n1CC1CCC1, the IC50 was 11.6 nM (PPARG; ligand displacement, TR-FRET).
With O=C1CC(c2ccccc2)N1S(=O)(=O)c1cccc(-c2ccccc2)c1 (centres unmarked) the IC50 was 70000 nM (Rhomboid protease AarA; enzyme activity, inhibitor, fluorogenic peptide; 8 min pre-incubation).
Cc1c(Cc2cccc(OC(C)(C)C(=O)O)c2)c2ccc(C(=O)N[C@@H](C)c3ccc(C(C)C)cc3)cc2n1C gave an IC50 of 850 nM (PPARG ligand-binding domain; reporter gene, luciferase reporter; HEK293T, Gal4-PPARγ LBD).
The IC50 of CCCSc1nc(Sc2nnc(C)s2)c2nnn(CCO)c2n1 is reported as 3940 nM (Lysine-specific histone demethylase 1A (KDM1A, Homo sapiens, UniProt O60341); enzyme activity, inhibitor, fluorescence).
COCCNC(=O)c1ccccc1NC(=O)C(C(F)(F)F)C(F)(F)F has an IC50 of 18000 nM (Rhomboid protease AarA; enzyme activity, inhibitor, fluorescence).
With Cc1c(Cc2cccc(OC(C(=O)O)C(F)(F)F)c2)c2ccc(C(=O)N[C@@H](C)c3cccc(C(C)(C)C)c3)cc2n1C (some centres unmarked) the IC50 was 158 nM (PPARG; ligand displacement, TR-FRET).
With [N-]=[N+]=N[C@]1(COP(=O)(O)OP(=O)(O)OP(=O)(O)O)O[C@@H](n2ccc(N)nc2=O)[C@@H](F)[C@@H]1O the IC50 was 4600 nM (Gag-Pol polyprotein, reverse transcriptase (gag-pol, Human immunodeficiency virus type 1 group M subtype B, UniProt P04585); reverse transcriptase activity, inhibitor; DNA template, with: dCTP 1 µM).

Some of these lines once more:
For O=C(NCc1ccc(OP(=O)(O)O)c(OP(=O)(O)O)c1)OCC1c2ccccc2-c2ccccc21, the IC50 was 460 nM (Signal transducer and activator of transcription 5B, SH2 (STAT5B, Homo sapiens, UniProt P51692); ligand displacement, FP).
CCn1nc(Cl)c2c1-c1cnc(N)c(c1)O[C@H](C)c1cc(F)ccc1-c1nn(C)cc1C2 has an IC50 of 795 nM (Mitogen-activated protein kinase kinase kinase kinase 5 (MAP4K5, Homo sapiens, UniProt Q9Y4K4); enzyme activity, inhibitor, radiometric).
With Cc1ccc(CNC(=O)[C@@H](NC(=O)[C@H](CCc2ccccc2)NC(=O)[C@H](CCc2ccccc2)N(C)Cc2cnccn2)C(C)C)cc1 the IC50 was 240 nM (Psmb1/Psmb8 (Rattus norvegicus, UniProt P18421+P28064); enzyme activity, inhibitor; with: Ac-ANW-aminocoumarin, PA28α 12 nM).
Cc1nc2c(F)cc(-c3nc(Nc4ccc(NC(=O)CCCCCCC(=O)NO)nc4)ncc3F)cc2n1C(C)C gave an IC50 of 6.9 nM (HDAC1; enzyme activity, inhibitor).
CC[C@H](C)[C@@H]1NC(=O)[C@H](Cc2ccc(O)cc2)NC(=O)CCSCc2cccc(c2)CSCCNC(=O)[C@H](Cc2c[nH]cn2)NC(=O)[C@H](Cc2ccc(O)cc2)NC(=O)[C@H](CC(=O)O)NC(=O)[C@H](Cc2ccc(F)cc2)NC(=O)[C@H](CC(C)C)NC(=O)[C@H](CCCNC(=N)N)NC1=O has an IC50 of 43 ± 17 nM (Melanoma-associated antigen 4 MAGE homology domain; binding, inhibitor, TR-FRET displacement; with: Alexa647-MTP-1).
